Measurements collected from several papers.
Each numbered part is a random draw from the data of one study; scales do not carry over between parts. Changes are numbered by the printed parent chain.

Study 1 — technique: RNA Bind-n-Seq; form: RNA; matrix: in vitro; concentration: 20 nM; setting: 6-mer, flanks averaged, single round; with: 150 mM LiCl; reference: input library; direction: higher = stronger binding; quantity: 6-mer enrichment (R)
Target: TAR DNA-binding protein 43, full length, His tag (TARDBP, Homo sapiens, UniProt Q13148, residues 1-414)
CGAUGC: 0.868
ACAACG: 0.803
UAGGCA: 0.907
CAAGUA: 0.886
UCAAUG: 0.901
ACGUGU: 1.12
CUCAUG: 0.881
AAAUCU: 0.867
ACCGCC: 0.94
CAGACG: 0.83
AUGCCU: 0.952
GGCCUA: 0.942
UAUAAG: 0.972
GACUGG: 1.06
CCAAGC: 0.881
GGGUAC: 1.02
AACCGU: 0.827
AGGCCC: 1.02
CGUGAA: 0.927
UAAGAU: 0.861
GUAUAG: 1.04
CGCUCA: 0.839
ACCUCC: 0.951
CAUCUC: 0.839
UGGCCC: 1.13

Study 2 — target: CCND3, cyclin fold, Cln2 fusion (human); technique: yeast growth competition, sequencing; matrix: yeast; setting: weak parent motif; reference: not given; direction: higher = stronger binding; quantity: normalised enrichment score
Starting sequence: RBL2 docking peptide (human); STTRRRLFVENDS; partner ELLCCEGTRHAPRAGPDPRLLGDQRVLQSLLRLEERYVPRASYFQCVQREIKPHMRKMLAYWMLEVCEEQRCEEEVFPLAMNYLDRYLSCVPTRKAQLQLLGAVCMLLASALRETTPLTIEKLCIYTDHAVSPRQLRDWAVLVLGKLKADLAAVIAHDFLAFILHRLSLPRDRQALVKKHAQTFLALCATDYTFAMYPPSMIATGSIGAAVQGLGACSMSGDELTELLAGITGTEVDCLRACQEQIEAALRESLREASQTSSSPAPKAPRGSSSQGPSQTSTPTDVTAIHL
E10C: 0.112
D12P: 0.136
E10N: 0.14
R6P: 0.0576
R4F: 0.171
V9W: 0.149
E10P: 0.193
R6W: 0.091
N11V: 0.123
R5W: 0.129
L7S: 0.128
R4I: 0.0989
R6F: 0.072
L7E: 0.0801
S1M: 0.111
D12H: 0.144
T3A: 0.108
N11C: 0.161
V9G: 0.0424
E10W: 0.093
L7D: 0.168
S13C: 0.129
V9I: 0.0666
D12F: 0.0884
V9L: 0.0653

Study 3 — target: ATF1, bZIP domain (human); technique: DHFR protein complementation; matrix: yeast; reference: wild-type JUN-FOS pair; direction: higher = stronger binding; quantity: binding fitness
Setting: single substitutions, most at no-binding floor
Starting sequence: JUN, bZIP domain (human); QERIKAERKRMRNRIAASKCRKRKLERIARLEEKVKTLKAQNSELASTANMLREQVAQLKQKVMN; partner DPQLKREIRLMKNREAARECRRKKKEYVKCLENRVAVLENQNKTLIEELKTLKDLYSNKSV
S43D: -1.55 natural log
Q41R: -1.5 natural log
L52Q: -1.53 natural log
L38N: -1.52 natural log
Q41M: -1.48 natural log
L31G: -1.53 natural log
R30G: -1.48 natural log
A29V: -1.45 natural log
K36A: -1.45 natural log
R30N: -1.51 natural log
S43H: -1.57 natural log
L59P: -1.49 natural log
Q41P: -1.54 natural log
E44I: -1.48 natural log
E32W: -1.5 natural log
K36V: -1.44 natural log
R30Q: -1.53 natural log
V35R: -1.56 natural log
T37W: -1.48 natural log

Study 4 — technique: DHFR PCA, deep sequencing; matrix: yeast; with: (+)-ABA 0.0091 µM; reference: wild-type fitted maximum; direction: higher = stronger binding; quantity: relative binding score
Target: ABI1, truncated, D143A, DHFR fusion (Arabidopsis thaliana)
Setting: methotrexate growth selection, single substitutions
Starting sequence: PYL1, truncated, DHFR fusion (Arabidopsis thaliana); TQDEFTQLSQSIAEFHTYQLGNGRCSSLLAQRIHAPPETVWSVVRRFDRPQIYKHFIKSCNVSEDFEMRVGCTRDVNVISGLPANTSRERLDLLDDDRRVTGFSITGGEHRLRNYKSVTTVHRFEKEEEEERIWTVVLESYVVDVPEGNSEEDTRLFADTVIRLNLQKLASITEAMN
S171R: 45.1%
T1S: 23.8%
E174W: -4.47%
F15M: 1.22%
D97E: 61.7%
G71L: -2.93%
V76Q: 1.57%
T154Q: -2.88%
D3E: 50.8%
K116E: -1.58%
V100A: 29.4%
I172Y: -2.11%
N22H: 34.3%
S87F: 29.5%
N149I: 41.1%
I79E: 13.9%
T73H: 21.5%
T160H: -2.62%
S11N: 4.62%
R46K: 25.2%
